Published values pooled from the literature.
Lines come from different studies, so protocols differ.
ACKR4: ACKR4 (Homo sapiens, UniProt Q9NPB9)
Sequence of UniProt Q9NPB9 (whole entry, looked up): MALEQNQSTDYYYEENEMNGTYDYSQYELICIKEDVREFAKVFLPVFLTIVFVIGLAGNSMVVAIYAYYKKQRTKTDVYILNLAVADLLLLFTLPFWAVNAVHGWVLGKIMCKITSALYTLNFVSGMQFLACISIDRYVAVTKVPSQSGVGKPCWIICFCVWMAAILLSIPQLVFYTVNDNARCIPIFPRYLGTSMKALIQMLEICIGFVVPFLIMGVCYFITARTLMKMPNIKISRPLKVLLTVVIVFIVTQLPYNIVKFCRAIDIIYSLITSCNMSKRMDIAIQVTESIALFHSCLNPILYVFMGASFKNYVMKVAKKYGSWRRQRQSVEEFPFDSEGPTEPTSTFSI
B1: CCL21 24-102 (Homo sapiens, UniProt O00585); sequence looked up; chain SDGGAQDCCLKYSQRKIPAKVVRSYRKQEPSLGCSIPAILFLPRKRSQAELCADPKELWVQQLMQHLDKTPSPQKPAQG
B2: Ric8b 1-483 R71E (Mus musculus, UniProt Q80XE1); chain MDEERALYIVRAGEAGAIERVLRDYSDKHRATFKFESADEDKRKKLCEGIFKVLVKEVPTTCQVSCLEVLEILSRDKKILVPVTTKENMQILLRLAKLHESDDSLEKVSEFPVIVESLKCLCNIVFNSQMAQQLSLELNLAAKLCNLLRKCKDRKFINDIKCFDLRLLFVLSLLHTDIRSQLRYELQGLPLLTQILESAFSIKWTDEYESAIDHNGPPLSPQETDCAIEALKALFNVTVDSWKVHKESDSHQFRVMAAVLRHCLLIVGPTEDKTEELHSNAVNLLSNVPVSCLDVLICPLTHEETAQEAATLDELPSDKTTEKDTALKNSTMVYNGMNMEAIHVLLNFMEKRIDKGSSYREGLTPVLSLLTECSRAHRNIRKFLKDQVLPPLRDVTNRPEVGSTVRNKLVRLMTHVDLGVKQIAAEFLFVLCKERVDSLLKYTGYGNAAGLLAARGLLAGGRGDNWYSEDEDTDTEEYKNAKP
B3: UGT1A9 (Homo sapiens, UniProt O60656); chain GKLLVVPMDGSHWFTMRSVVEKLILRGHEVVVVMPEVSWQLGRSLNCTVKTYSTSYTLEDLDREFKAFAHAQWKAQVRSIYSLLMGSYNDIFDLFFSNCRSLFKDKKLVEYLKESSFDAVFLDPFDNCGLIVAKYFSLPSVVFARGILCHYLEEGAQCPAPLSYVPRILLGFSDAMTFKERVRNHIMHLEEHLLCHRFFKNALEIASEILQTPVTEYDLYSHTSIWLLRTDFVLDYPKPVMPNMIFIGGINCHQGKPLPMEFEAYINASGEHGIVVFSLGSMVSEIPEKKAMAIADALGKIPQTVLWRYTGTRPSNLANNTILVKWLPQNDLLGHPMTRAFITHAGSHGVYESICNGVPMVMMPLFGDQMDNAKRMETKGAGVTLNVLEMTSEDLENALKAVINDKSYKENIMRLSSLHKDRPVEPLDLAVFWVEFVMRHKGAPHLRPAAHDLTWYQYHSLDVIGFLLAVVLTVAFITFKCCAYGYRKCLGKKGRVKKAHKSKTH
B4: addA D1172A (Bacillus subtilis, UniProt P23478); sequence looked up; chain MNIPKPADSTWTDDQWNAIVSTGQDILVAAAAGSGKTAVLVERMIRKITAEENPIDVDRLLVVTFTNASAAEMKHRIAEALEKELVQRPGSLHIRRQLSLLNRASISTLHSFCLQVLKKYYYLIDLDPGFRIADQTEGELIGDEVLDELFEDEYAKGEKAFFELVDRYTTDRHDLDLQFLVKQVYEYSRSHPNPEAWLESFVHLYDVSEKSAIEELPFYQYVKEDIAMVLNGAKEKLLRALELTKAPGGPAPRADNFLDDLAQIDELIQHQDDFSELYKRVPAVSFKRAKAVKGDEFDPALLDEATDLRNGAKKLLEKLKTDYFTRSPEQHLKSLAEMKPVIETLVQLVISYGKRFEAAKQEKSIIDFSDLEHYCLAILTAENDKGEREPSEAARFYQEQFHEVLVDEYQDTNLVQESILQLVTSGPEETGNLFMVGDVKQSIYRFRLAEPLLFLSKYKRFTESGEGTGRKIDLNKNFRSRADILDSTNFLFKQLMGGKIGEVDYDEQAELKLGAAYPDNDETETELLLIDNAEDTDASEEAEELETVQFEAKAIAKEIRKLISSPFKVYDGKKKTHRNIQYRDIVILLRSMPWAPQIMEELRAQGIPVYANLTSGYFEAVEVAVALSVLKVIDNPYQDIPLASVLRSPIVGADENELSLIRLENKKAPYYEAMKDYLAAGDRSDELYQKLNTFYGHLQKWRAFSKNHSVSELIWEVYRDTKYMDYVGGMPGGKQRQANLRVLYDRARQYESTAFRGLFRFLRFIERMQERGDDLGTARALSEQEDVVRLMTIHSSKGLEFPVVFVAGLGRNFNMMDLNKSYLLDKELGFGTKYIHPQLRISYPTLPLIAMKKKMRRELLSEELRVLYVALTRAKEKLFLIGSCKDHQKQLAKWQASASQTDWLLPEFDRYQARTYLDFIGPALARHRDLGDLAGVPAHADISGHPARFAVQMIHSYDLLDDDLEERMEEKSERLEAIRRGEPVPGSFAFDEKAREQLSWTYPHQEVTQIRTKQSVSEIKRKREYEDEYSGRAPVKPADGSILYRRPAFMMKKGLTAAEKGTAMHTVMQHIPLSHVPSIEEAEQTVHRLYEKELLTEEQKDAIDIEEIVQFFHTEIGGQLIGAKWKDREIPFSLALPAKEIYPDAHEADEPLLVQGIIDCLYETEDGLYLLAYKSDRIEGKFQHGFEGAAPILKKRYETQIQLYTKAVEQIAKTKVKGCALYFFDGGHILTL
Sequence of UniProt P32302 (whole entry, looked up): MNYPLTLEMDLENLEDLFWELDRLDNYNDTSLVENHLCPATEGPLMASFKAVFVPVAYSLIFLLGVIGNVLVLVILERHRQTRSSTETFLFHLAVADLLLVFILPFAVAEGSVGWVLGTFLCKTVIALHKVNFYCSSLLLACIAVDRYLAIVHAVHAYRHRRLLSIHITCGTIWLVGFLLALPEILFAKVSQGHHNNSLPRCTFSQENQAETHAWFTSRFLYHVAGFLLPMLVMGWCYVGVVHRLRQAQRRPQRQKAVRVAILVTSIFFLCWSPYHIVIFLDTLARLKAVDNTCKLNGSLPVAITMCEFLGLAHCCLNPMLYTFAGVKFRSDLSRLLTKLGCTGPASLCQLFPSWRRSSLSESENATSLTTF
Sequence of UniProt P38405 (whole entry, looked up): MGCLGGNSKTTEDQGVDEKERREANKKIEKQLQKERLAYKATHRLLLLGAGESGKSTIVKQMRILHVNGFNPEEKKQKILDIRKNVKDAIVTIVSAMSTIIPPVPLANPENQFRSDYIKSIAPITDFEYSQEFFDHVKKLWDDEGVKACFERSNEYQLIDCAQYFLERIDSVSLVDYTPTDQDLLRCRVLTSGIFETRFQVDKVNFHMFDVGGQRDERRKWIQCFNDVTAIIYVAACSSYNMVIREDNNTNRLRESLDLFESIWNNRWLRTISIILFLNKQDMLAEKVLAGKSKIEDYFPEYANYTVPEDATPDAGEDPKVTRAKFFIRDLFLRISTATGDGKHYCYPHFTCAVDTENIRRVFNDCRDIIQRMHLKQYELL
Sequence of UniProt D3ZJ25 (whole entry, looked up): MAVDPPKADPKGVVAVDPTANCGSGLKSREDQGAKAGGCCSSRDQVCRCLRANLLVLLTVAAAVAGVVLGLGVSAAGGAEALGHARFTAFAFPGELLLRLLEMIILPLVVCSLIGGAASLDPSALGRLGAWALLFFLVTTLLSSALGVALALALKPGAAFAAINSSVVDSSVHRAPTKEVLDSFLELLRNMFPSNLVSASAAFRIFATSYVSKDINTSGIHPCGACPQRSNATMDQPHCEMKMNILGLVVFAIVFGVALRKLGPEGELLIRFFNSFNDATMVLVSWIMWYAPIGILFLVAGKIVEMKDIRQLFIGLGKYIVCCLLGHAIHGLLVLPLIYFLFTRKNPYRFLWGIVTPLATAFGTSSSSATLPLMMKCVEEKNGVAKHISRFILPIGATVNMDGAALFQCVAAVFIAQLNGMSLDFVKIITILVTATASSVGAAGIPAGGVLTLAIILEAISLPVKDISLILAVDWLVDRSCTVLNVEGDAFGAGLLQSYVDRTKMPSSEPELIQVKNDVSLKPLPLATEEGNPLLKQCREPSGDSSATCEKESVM
Sequence of UniProt P00813 (whole entry, looked up): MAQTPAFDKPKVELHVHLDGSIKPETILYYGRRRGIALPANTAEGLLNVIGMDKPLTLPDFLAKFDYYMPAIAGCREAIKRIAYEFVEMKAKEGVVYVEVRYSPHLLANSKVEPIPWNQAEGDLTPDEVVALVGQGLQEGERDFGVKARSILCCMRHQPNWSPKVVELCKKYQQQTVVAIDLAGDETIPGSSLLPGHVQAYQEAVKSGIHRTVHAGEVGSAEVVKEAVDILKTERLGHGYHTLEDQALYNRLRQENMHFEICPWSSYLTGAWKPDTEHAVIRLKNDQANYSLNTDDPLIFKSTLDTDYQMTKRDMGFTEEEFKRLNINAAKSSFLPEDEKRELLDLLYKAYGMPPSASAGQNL
Sequence of UniProt P10145 (whole entry, looked up): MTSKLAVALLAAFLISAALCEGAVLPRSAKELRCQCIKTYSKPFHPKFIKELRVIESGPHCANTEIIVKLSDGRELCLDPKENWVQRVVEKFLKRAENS
Sequence of UniProt P02769 (whole entry, looked up): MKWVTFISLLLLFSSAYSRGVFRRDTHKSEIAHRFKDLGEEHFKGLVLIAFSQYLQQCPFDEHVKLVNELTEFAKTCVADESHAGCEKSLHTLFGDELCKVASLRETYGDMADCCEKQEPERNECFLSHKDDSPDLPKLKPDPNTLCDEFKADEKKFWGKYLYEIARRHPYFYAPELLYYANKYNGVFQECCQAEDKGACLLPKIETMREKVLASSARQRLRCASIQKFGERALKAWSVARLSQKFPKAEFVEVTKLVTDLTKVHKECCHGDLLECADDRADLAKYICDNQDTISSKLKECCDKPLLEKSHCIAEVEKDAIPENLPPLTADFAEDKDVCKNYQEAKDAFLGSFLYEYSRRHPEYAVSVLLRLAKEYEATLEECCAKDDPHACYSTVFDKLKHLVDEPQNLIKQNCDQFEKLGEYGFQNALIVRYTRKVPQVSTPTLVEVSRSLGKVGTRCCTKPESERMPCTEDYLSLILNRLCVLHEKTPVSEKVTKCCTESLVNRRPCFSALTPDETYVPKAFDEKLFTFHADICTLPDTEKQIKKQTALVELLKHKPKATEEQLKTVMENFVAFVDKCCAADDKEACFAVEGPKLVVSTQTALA

For `B1 (CCL21 24-102)`, the EC50 was 7 nM (ACKR4; β-arrestin recruitment, agonist, NanoLuc complementation).
`Prkcd (Rattus norvegicus, UniProt P09215)` gave a co-precipitated PKCδ of 5.34 fold (Slc1a5 (Rattus norvegicus, UniProt D3ZJ25); co-IP; primary rat astrocytes; 4 h, added: Mn(II) 500 µM; baseline: control, higher = more PKCδ).
`B2 (Ric8b 1-483 R71E)` gave a sensor folding of 29% (GNAL 1-381 (Homo sapiens, UniProt P38405); luminescence; RIC-8B knockout HEK293T; baseline: wild-type Ric-8B, higher = more folding).
For `Dnmt3l fragment F297A (Mus musculus)`, “methylation activity reduction” read 50% (Dnmt3a fragment (Mus musculus); DNA methylation activity; baseline: wild-type complex, higher = greater loss of activity).
`MR1/B2M empty, chimera (Homo sapiens/Bos taurus)` has an apparent T2 of 148 ms (TAPBPL fragment del24-36; 19F CPMG NMR; with TAPBPR mutant, added: 19F-DCF 500 µM).
`CAND1 (Homo sapiens, UniProt Q86VP6)` has a dissociation half-life of 13 min (CUL2 (Homo sapiens, UniProt Q13617); co-IP; lysate; unneddylated, chase).
`ADA (Homo sapiens, UniProt P00813)`: “relative enzyme activity” 1.55 fold (bovine serum albumin (Bos taurus, UniProt P02769); adenosine deamination; pH 7.4; baseline: PBS pH 7.4, higher = more activity).
For `B3 (UGT1A9)`, the Vmax was 0.00444 µmol/min/mg (CC(=O)c1ccc(O)cc1; steady-state kinetics; pH 7.4, 37 °C).
Under “molecule per partner”, `B4 (addA D1172A)` is recorded as 1 (addB D961A (Bacillus subtilis, UniProt P23477); AUC; sedimentation equilibrium, no DNA).
With `GGWSHY (THBS1 residues 436-441 W441Y (Homo sapiens))` the IC50 was > 300000 nM (FN1 intact plasma (Homo sapiens); competition with coated peptide, radioligand binding; peptide).
For `CCL21 (UniProt O00585)`, the pEC50 was 8.5 (ACKR4; β-galactosidase activity, agonist, EFC; CHO-CCX-CKR; added: wild-type CXCL12 1 µM).
The maximal response of `CXCL8 (Homo sapiens, UniProt P10145)` is reported as 23.2 DMR (CXCR5 (Homo sapiens, UniProt P32302); label-free dynamic mass redistribution; HEK293T; higher = stronger response).

Some of these lines once more:
`B2 (Ric8b 1-483 R71E)` gave a sensor folding of 29% (GNAL 1-381 (Homo sapiens, UniProt P38405); luminescence; RIC-8B knockout HEK293T; baseline: wild-type Ric-8B, higher = more folding).
For `Dnmt3l fragment F297A (Mus musculus)`, “methylation activity reduction” read 50% (Dnmt3a fragment (Mus musculus); DNA methylation activity; baseline: wild-type complex, higher = greater loss of activity).
